Measured values of several laboratories.
Numbers after ± are the reported error.
MAOB: Amine oxidase [flavin-containing] B (MAOB, Homo sapiens, UniProt P27338)
BCHE: Cholinesterase (BCHE, Homo sapiens, UniProt P06276)

Chains of the proteins cited; added tags and fusions are not shown. Lines headed by an entry give the natural chain unless they say otherwise; changes in a name come on top. Residues count along the entry.
UniProt P27338, whole entry: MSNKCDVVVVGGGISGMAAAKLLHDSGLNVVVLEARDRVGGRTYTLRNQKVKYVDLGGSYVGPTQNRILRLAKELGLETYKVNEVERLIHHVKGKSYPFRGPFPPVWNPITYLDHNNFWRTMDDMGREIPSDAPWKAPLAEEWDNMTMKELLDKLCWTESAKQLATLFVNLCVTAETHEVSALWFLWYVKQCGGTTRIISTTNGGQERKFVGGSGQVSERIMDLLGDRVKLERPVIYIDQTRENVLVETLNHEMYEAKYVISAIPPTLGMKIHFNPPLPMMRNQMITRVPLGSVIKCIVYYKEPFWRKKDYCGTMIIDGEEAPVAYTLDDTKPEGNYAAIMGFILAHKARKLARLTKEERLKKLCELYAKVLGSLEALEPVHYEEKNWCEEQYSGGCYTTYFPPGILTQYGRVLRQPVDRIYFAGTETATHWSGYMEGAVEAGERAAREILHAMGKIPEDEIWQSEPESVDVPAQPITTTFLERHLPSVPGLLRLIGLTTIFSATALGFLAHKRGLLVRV
UniProt P06276, whole entry, looked up: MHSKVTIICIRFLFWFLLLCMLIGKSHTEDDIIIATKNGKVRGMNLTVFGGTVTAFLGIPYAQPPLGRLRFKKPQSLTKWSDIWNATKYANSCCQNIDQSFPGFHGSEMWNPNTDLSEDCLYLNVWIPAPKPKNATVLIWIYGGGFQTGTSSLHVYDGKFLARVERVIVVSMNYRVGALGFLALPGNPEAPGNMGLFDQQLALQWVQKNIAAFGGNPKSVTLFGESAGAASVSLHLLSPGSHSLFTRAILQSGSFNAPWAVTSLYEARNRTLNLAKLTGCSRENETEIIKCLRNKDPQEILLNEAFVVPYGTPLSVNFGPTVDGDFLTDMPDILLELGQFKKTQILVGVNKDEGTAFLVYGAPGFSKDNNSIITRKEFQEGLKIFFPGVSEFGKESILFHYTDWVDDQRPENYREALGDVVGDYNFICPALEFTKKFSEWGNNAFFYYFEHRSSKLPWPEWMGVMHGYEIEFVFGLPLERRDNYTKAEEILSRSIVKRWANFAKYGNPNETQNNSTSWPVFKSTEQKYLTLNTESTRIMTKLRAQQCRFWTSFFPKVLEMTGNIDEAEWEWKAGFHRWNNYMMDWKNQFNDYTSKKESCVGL
UniProt P00761, 9-231 limits assumed: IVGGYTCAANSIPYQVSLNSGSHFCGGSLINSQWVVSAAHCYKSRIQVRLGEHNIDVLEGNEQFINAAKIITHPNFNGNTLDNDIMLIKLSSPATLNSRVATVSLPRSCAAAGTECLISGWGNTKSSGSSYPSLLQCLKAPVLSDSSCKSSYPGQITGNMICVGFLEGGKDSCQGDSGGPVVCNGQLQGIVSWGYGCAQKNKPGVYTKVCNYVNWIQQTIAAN
UniProt Q4QE15, 1-355 D105E: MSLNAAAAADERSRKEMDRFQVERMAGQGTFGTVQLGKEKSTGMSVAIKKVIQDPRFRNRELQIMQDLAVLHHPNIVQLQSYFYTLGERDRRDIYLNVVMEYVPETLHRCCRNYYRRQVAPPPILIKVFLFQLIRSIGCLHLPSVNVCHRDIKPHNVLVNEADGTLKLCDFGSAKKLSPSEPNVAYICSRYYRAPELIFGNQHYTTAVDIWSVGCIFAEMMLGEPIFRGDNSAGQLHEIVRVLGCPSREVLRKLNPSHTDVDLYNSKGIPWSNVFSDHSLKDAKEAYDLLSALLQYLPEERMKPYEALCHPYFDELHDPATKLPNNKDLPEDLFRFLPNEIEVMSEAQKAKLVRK
UniProt Q15858, whole entry: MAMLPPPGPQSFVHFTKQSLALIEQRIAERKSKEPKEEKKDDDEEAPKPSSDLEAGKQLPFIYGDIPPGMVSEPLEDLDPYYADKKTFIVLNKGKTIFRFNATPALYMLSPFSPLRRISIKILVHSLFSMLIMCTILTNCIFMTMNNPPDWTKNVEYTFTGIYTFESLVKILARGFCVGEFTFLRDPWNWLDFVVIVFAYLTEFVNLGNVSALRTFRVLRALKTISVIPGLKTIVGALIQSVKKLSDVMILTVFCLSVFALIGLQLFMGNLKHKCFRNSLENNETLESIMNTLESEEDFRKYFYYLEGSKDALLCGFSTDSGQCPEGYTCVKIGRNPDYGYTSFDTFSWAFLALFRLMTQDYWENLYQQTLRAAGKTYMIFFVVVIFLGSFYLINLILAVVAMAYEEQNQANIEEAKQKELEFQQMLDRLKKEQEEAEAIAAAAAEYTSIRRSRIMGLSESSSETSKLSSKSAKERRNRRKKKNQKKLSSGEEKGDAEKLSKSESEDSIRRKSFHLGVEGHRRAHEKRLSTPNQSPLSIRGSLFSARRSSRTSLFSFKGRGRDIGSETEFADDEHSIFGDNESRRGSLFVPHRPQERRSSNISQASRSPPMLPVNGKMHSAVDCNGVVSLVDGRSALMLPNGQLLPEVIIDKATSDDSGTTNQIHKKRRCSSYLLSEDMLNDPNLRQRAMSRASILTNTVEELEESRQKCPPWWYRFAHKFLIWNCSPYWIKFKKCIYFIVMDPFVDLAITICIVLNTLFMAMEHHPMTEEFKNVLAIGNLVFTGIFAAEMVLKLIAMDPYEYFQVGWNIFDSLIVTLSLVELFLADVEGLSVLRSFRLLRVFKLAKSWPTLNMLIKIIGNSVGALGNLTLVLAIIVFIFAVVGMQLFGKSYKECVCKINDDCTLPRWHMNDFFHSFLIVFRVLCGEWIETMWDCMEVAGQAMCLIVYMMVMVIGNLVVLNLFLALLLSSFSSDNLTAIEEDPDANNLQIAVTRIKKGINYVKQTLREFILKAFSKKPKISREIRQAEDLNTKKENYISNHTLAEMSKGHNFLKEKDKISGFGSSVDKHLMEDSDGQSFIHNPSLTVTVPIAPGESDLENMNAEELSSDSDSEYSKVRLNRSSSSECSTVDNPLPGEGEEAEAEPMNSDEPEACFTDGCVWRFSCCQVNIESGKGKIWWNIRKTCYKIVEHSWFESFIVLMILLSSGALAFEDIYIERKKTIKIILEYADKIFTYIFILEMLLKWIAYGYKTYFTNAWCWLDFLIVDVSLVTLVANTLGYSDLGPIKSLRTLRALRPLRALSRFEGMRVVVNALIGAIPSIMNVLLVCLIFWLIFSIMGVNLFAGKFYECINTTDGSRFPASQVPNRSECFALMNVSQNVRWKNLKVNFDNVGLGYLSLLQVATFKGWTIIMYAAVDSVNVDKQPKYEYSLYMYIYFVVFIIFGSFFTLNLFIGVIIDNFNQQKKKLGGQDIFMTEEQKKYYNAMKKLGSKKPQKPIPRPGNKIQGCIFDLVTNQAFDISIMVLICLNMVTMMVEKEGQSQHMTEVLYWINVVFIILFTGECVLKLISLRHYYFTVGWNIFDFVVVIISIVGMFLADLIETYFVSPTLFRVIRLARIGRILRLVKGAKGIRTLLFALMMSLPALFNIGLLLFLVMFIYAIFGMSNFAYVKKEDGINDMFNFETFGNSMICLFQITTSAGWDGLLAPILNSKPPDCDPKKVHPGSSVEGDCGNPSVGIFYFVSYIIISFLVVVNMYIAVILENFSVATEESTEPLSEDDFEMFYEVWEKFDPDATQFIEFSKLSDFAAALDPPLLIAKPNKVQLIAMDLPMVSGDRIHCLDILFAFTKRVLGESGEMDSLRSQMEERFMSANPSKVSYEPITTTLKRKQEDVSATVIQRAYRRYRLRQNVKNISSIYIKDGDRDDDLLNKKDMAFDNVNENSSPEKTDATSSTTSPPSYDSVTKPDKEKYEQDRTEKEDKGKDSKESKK
UniProt P42866, whole entry: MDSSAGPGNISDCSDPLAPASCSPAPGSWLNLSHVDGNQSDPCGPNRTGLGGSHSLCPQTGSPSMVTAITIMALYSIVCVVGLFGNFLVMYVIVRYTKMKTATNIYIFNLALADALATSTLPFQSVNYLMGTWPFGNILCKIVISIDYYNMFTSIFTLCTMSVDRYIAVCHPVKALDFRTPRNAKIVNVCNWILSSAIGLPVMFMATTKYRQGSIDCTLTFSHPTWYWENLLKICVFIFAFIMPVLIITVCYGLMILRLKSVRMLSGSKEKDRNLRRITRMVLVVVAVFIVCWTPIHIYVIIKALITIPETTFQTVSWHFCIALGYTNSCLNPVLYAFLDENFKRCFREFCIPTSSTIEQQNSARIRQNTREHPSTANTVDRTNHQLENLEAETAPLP
UniProt P80299, whole entry: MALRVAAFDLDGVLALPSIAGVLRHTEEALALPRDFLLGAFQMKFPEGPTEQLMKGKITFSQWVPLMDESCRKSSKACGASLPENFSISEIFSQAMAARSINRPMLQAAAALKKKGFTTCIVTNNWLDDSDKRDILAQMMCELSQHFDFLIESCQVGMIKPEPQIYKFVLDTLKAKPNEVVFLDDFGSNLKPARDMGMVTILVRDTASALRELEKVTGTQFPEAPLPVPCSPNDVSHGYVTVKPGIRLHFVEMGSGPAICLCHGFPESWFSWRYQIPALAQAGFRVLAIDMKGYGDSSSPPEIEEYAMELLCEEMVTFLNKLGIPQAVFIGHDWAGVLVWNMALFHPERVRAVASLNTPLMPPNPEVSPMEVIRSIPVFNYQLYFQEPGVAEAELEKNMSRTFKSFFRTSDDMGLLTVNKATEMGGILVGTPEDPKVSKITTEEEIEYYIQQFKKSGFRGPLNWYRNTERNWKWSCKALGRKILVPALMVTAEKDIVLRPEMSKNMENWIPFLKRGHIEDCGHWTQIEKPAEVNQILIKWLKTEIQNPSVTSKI
UniProt P22303, 32-614 limits assumed: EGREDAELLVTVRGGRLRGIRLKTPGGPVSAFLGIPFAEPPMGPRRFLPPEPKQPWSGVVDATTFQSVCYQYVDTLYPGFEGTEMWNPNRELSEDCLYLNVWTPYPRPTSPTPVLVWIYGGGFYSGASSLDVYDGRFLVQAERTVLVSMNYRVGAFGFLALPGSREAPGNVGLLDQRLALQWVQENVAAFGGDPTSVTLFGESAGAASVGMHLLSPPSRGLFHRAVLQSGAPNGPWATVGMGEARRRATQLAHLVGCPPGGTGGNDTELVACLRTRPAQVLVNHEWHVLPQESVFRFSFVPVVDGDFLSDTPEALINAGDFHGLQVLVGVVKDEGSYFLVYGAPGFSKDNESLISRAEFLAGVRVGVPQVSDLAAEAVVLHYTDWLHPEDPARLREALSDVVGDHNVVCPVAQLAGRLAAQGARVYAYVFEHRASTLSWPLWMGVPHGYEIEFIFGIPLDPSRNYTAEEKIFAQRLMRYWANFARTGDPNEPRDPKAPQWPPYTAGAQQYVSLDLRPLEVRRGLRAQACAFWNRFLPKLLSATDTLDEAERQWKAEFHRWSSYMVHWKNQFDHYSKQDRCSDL
UniProt P0A800, whole entry, stated change not applied: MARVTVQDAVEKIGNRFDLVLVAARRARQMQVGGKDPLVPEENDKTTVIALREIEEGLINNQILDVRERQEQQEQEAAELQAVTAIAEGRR
UniProt P0ABB0, whole entry: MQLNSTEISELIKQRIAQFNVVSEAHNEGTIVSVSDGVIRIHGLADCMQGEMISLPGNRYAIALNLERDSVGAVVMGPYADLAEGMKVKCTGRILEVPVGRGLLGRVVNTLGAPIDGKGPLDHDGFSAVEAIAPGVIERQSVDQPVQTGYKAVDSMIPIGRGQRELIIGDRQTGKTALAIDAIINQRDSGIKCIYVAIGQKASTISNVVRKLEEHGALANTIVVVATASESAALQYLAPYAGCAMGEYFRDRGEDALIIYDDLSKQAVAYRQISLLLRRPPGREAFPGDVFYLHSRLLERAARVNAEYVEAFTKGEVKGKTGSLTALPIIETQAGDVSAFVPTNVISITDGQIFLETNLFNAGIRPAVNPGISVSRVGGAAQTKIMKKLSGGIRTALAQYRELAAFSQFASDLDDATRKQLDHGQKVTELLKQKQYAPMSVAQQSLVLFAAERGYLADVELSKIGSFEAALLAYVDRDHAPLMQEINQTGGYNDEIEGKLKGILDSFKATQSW
UniProt P0ABB4, 2-460 limits assumed: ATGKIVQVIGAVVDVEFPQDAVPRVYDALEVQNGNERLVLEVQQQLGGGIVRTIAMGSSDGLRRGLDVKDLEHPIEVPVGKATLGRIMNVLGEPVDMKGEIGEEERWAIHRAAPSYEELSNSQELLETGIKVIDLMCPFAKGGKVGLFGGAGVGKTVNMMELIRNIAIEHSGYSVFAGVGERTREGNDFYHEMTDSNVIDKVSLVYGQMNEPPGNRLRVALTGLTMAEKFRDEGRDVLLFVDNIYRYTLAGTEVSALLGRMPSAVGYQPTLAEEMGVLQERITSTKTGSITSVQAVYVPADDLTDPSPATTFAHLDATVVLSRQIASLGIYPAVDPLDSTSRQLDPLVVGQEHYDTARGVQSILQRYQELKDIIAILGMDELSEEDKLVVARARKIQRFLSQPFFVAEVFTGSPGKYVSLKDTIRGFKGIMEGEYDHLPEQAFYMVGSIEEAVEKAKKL
UniProt P11802, whole entry: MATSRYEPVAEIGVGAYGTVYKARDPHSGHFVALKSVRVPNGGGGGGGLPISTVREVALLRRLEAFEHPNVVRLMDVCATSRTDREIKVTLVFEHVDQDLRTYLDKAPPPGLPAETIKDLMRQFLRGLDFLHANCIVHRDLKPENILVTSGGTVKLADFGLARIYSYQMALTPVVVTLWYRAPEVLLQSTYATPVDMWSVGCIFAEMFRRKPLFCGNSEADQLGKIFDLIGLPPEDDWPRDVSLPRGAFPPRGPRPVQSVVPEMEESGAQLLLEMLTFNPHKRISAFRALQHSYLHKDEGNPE

CC[C@@H](C)[C@@H](NC(=O)C(O)Cc1ccc(O)c(Cl)c1)C(=O)N1C(C(=O)NCCCCN=C(N)N)CC2CCC(OS(=O)(=O)O)CC21 (some centres unmarked) — IC50 (Trypsin (Sus scrofa, UniProt P00761); enzyme activity, inhibitor): 0.07 mg/L
O=C(Cc1ccccc1Cl)N1CCN(c2ccc3nncn3n2)CC1 — IC50 (MAOB; enzyme activity, inhibitor, fluorescence; recombinant human enzyme, added: kynuramine 20 µM): 5.55 µM
Nc1nc(Nc2ccc(S(N)(=O)=O)cc2)nn1C(=S)Nc1c(F)cccc1F — IC50 (Putative glycogen synthase kinase (Leishmania major, UniProt Q4QE15, D105E); enzyme activity, inhibitor; 90 min, 30 °C, added: 2 µM ATP): 0.46 µM
N#Cc1cc(S(=O)(=O)Nc2ncns2)ccc1OC(CCC12CCC(c3ccccc31)c1ccccc12)COCCN1CCCC1 (single isomer, unassigned) — IC50 (SCN9A (Homo sapiens, UniProt Q15858); inhibitor): 0.00078 µM
Cc1ccc(S(=O)(=O)Nc2ccccc2N2CCCCC2)s1 — IC50 (BCHE; enzyme activity, inhibitor, fluorescence): 19.4 ± 2.23 µM
CCOC(=O)/C=C1\[C@@H]2CCC[C@@]1(c1cccc(O)c1)CCN2C[C@H]1C[C@@H]1CCNC(=O)c1cc2ccccc2[nH]1 (single isomer, unassigned) — IC50 (Oprm1 (Mus musculus, UniProt P42866); Gi2 activation, antagonist, BRET; added: DAMGO 100 nM): 2.1 µM
O=C(Nc1ccc(-c2nc3ccccc3s2)cc1)C1CCN(S(=O)(=O)c2ccccc2Cl)CC1 — IC50 (Ephx2 (Rattus norvegicus, UniProt P80299); enzyme activity, inhibitor, fluorescence; pH 7.4, 37 °C, added: CMNPC 5 µM): 0.0039 µM
CCN(CC)c1ccc2c(O)c(C=Nc3ccc(CC(=O)NNc4c5c(nc6ccccc46)CCCC5)cc3)c(=O)oc2c1 — IC50 (ACHE (Homo sapiens, UniProt P22303); enzyme activity, inhibitor): 0.02 ± 0.01 µM
O=C(Nc1nc(-c2ccc3ccccc3c2)cs1)c1cccs1 — IC50 (MAOA (Homo sapiens, UniProt P21397); enzyme activity, inhibitor, fluorescence; recombinant human enzyme, added: kynuramine 40 µM): 1.74 µM
O=C(NOCC1CC1)c1cc(Br)c(F)c(F)c1Nc1ccc(I)cc1Cl — IC50 (BCHE; enzyme activity, inhibitor, fluorescence): 15.9 ± 1.08 µM
O=C(Cn1c(-c2ccccn2)nc2ccccc21)Nc1ccc2ccccc2c1 — IC50 (guaB (Escherichia coli K-12, UniProt P0ADG7); enzyme activity, inhibitor; Escherichia coli): > 10 µM
O=C1NC(=O)N(c2cccc(Br)c2)C(=O)/C1=C/c1c[nH]c2ccccc12 — IC50 (Prothrombin (F2, Bos taurus, UniProt P00735); enzyme activity; 30 min preincubation, added: pyroGlu-Pro-Arg-pNA): > 20 µM
CC(C)Cc1nnc2c(C(=O)NC3c4ccccc4-c4ccccc43)cccn12 — IC50 (rpoZ/rpoC/rpoB (Escherichia coli, UniProt P0A800+P0A8T7+P0A8V2, D516V); enzyme activity, inhibitor; rifampicin-resistant RNA polymerase): 4 µM
O=C(N/N=C/c1cc([N+](=O)[O-])ccc1O)c1ccc(O)cc1O — IC50 (PHGDH (Homo sapiens, UniProt O43175, K58A/T60A); enzyme activity, inhibitor; K57A T59A mutant): 128 ± 10 µM
CSc1nc(Cl)cc(Sc2nnc(-c3cc(C(F)(F)F)cc(C(F)(F)F)c3)[nH]2)n1 — IC50 (atpA/atpD (Escherichia coli, UniProt P0ABB0+P0ABB4); ATPase activity, inhibitor): > 200 µM
c1ccc(N2CCN(c3nc4cc5c(cc4s3)OCCO5)CC2)cc1 — IC50 (MAOB; enzyme activity, inhibitor, fluorescence; recombinant human enzyme, added: kynuramine 20 µM): 0.55 µM
Fc1cccc(-n2cnc3c(NCc4nc5cc(Cl)ccc5[nH]4)nc(N4CCNCC4)nc32)c1 — IC50 (Cyclin-dependent kinase 4, with cyclin D1 (CDK4, Homo sapiens, UniProt P11802); enzyme activity, inhibitor): 0.283 µM
